Experimental data pooled from the literature.
Numbered parts are unrelated; each lists some results of a single study.

Sample 1
Target: Sox-I, HMG box (Salpingoeca helianthica)
Technique: Spec-seq
Molecule type: double-stranded DNA, one strand shown
Medium: in vitro
Tested at: not given
Setting: whole probe, mean of replicates
Reference: not given
Direction: lower = stronger binding
Endpoint: relative binding energy
Construct (chain): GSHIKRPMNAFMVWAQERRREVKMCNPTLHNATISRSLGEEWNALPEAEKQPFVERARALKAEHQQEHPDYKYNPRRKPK
GAGTCGTCTCGTCAGCACCATGACTCCGTAGAGCACTCAGGTC: 0.595 ln ratio
GAGTCGTCTCGTCAGCACCATCCACCCGTAGAGCACTCAGGTC: 0.55 ln ratio
GAGTCGTCTCGTCAGCACCATACAACCGTAGAGCACTCAGGTC: -0.186 ln ratio

Sample 2
Target: Sal-like protein 4, full length isoform B (SALL4, Homo sapiens, UniProt Q9UJQ4-2, residues 1-616)
Technique: universal PBM
Molecule type: double-stranded DNA, one strand shown
Medium: in vitro
Tested at: not given
Setting: 8-mer, flanks averaged, mean of replicates
Direction: higher = stronger binding
Endpoint: E-score
ACTAGAAC: 0.121
AACGAGAA: 0.237
CTACGCGC: -0.277
ACATAAGT: 0.262
CCGTACAA: 0.059

Sample 3
Target: Histone acetyltransferase KAT6A, winged helix 1, GST fusion (KAT6A, Homo sapiens, UniProt Q92794, residues 1-85)
Technique: protein binding microarray
Molecule type: double-stranded DNA, one strand shown
Medium: in vitro
Tested at: not given
Setting: 8-mer, flanks averaged, mean of 2 arrays, mostly near background
Reference: not given
Direction: higher = stronger binding
Endpoint: E-score
Construct (chain): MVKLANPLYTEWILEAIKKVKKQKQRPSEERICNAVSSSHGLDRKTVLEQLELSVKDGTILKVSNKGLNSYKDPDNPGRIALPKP
ACCACTTC: -0.128
AGCCGACA: 0.115
GGCACCTA: 0.0798

Single results of other studies
PhoQ, residues 284 288 289 292 302 303 NLCILV  fold induction (PhoP, residues 12 14 15 18 19 LWHVM (Escherichia coli, UniProt P23836); Sort-seq, refers to: YFP reporter; E. coli; PhoQ-PhoP variant library, together with: 10 µM Mg2+; reference: high Mg2+ state, higher = stronger signaling): 22.8

Repeated from above (single results of other studies):
PhoQ, residues 284 288 289 292 302 303 NLCILV  fold induction (PhoP, residues 12 14 15 18 19 LWHVM (Escherichia coli, UniProt P23836); Sort-seq, refers to: YFP reporter; E. coli; PhoQ-PhoP variant library, together with: 10 µM Mg2+; reference: high Mg2+ state, higher = stronger signaling): 22.8
